Experimental data pooled from the literature.
Each numbered part is a random draw from the data of one study; scales do not carry over between parts. Substitutions count along the parent as printed.

Block 1
Target: CCNB3, cyclin fold, Cln2 fusion (human)
Method: yeast growth competition, sequencing
Matrix: yeast
Notes: strong parent motif
Relative to: not given
Reading: higher = stronger binding
Starting sequence: E2F1 docking peptide (human); PPVKRRLDFETDH; partner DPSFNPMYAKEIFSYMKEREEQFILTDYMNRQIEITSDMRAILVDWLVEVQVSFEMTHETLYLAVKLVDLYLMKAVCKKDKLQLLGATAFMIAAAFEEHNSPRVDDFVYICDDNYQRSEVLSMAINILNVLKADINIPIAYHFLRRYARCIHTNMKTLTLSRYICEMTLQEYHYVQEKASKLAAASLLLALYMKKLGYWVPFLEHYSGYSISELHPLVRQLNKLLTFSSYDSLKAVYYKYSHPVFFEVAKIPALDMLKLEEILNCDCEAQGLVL
Change | normalised enrichment score
V3K | -0.124
E10W | 0.909
D8Y | 2.16
F9H | 0.0227
T11P | 2.64
V3H | 0.109
F9P | -0.193
R6C | 0.811
R5G | 0.189
T11I | 2.8
L7H | 0.0466
D12E | 2.65
R5P | -0.0456
D12A | 3.15
L7P | -0.0944
V3F | 0.317
P2Q | 1.84
L7A | 0.318
D8V | 2.64
R5T | 0.405

Block 2
Target: ABI1, truncated, D143A, DHFR fusion (Arabidopsis thaliana)
Method: DHFR PCA, deep sequencing
Matrix: yeast
Notes: methotrexate growth selection, single substitutions
With: (+)-ABA 0.11 µM
Relative to: wild-type fitted maximum
Reading: higher = stronger binding
Starting sequence: PYL1, truncated, DHFR fusion (Arabidopsis thaliana); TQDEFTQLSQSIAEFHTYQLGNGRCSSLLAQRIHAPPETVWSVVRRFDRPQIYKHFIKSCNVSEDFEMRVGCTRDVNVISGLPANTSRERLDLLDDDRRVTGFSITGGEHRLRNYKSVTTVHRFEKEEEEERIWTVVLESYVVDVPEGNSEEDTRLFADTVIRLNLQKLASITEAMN; partner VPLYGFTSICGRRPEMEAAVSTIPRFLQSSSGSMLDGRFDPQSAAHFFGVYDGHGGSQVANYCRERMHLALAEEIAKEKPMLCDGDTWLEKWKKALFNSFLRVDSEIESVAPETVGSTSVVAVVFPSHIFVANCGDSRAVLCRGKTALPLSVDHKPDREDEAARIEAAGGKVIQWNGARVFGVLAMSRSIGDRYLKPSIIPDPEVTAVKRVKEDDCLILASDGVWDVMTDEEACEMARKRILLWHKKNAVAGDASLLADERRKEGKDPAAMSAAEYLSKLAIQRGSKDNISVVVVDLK
Change | relative binding score
D153H | 1.18%
S26L | -0.118%
V43M | 8.19%
E89L | -2.34%
D3K | 14.2%
V143E | -1.49%
E129K | 46.8%
A35S | 3.84%
P36H | 33.2%
D159W | -1.85%
S87M | 34%
V161D | 5.84%
A84F | 84.5%
Q31E | 4.63%
L20V | 58.2%
S80G | 7.89%
H16E | -1.08%
Y18W | 25.8%
F56T | -7.09%
L138R | -0.31%

Block 3
Target: Ras GTPase-activating protein-binding protein 1, full length (G3BP1, Homo sapiens, UniProt Q13283)
UniProt Q13283, sequence (whole entry, looked up): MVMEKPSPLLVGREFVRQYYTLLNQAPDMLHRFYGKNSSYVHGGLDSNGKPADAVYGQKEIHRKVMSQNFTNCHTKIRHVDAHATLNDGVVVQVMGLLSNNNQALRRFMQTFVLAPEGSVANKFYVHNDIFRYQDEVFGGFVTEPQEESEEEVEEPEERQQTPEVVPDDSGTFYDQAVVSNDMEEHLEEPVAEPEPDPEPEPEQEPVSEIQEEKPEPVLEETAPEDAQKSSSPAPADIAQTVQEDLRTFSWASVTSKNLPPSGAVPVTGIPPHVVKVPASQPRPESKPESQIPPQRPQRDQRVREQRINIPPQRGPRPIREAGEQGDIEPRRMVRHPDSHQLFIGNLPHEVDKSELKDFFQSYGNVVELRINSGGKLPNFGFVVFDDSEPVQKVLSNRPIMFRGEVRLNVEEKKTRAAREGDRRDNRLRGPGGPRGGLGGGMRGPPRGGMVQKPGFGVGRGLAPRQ
Method: RNA Bind-n-Seq
Form: RNA
Matrix: in vitro
Concentration: 200 nM
Notes: whole 134-nt RNA, ends assumed
With: 150 mM KCl
Relative to: input library
Reading: higher = stronger binding
Constant ends, left off below: GGGAGUUCUACAGUCCGACGAUC … UGGAAUUCUCGGGUGUCAAGG
Strand | log2 enrichment
UCAAGUCCUGUGCUACACAUCGUAUGUACCGAAUCGGAAAAAAAGGUUUGGAGGAAAGUAUUAUGUUACGCCGUUCGGAUCUGCACUUCC | -1.34
UGGCGCUGUCCUGGACUUGAUGGGGGAUGAAGCCCAGAACCUGACGAGGGGCCGGCAGCAGCUCAAGUGGUGAGUGAUCGAGUGAGCCGC | -0.416
CUCAAGUCCUGUGCUACACAUCGUAUGUACCGAAUCGGAAAAAAAGGAGGAGGAAAGUAUUAUGUUACGCCGUUCGGAUCUGCACUUCCA | -0.556
CAAGUCCUGUGCUACACAUCGUAUGUACCGAAUCGGAAAGGGGAAAGGAAAGGGGAAAGUAUUAUGUUACGCCGUUCGGAUCUGCACUUC | -0.0572
CUCAAGUCCUGUGCUACACAUCGUAUGUACCGAAUCGGGCCGGCCGGGGCCGGGAAAGUAUUAUGUUACGCCGUUCGGAUCUGCACUUCC | -0.451
AGUCCUGUGCUACACAUCGUAUGUACCGAAUCGUGUGUGUGUGUGUGUGUGUGUGUGUAAAGUAUUAUGUUACGCCGUUCGGAUCUGCAC | 0.666
CCUCAAGUCCUGUGCUACACAUCGUAUGUACCGAAUCGGGUUGGGUUGGUUGGAAAGUAUUAUGUUACGCCGUUCGGAUCUGCACUUCCA | 0.232
CAAGUCCUGUGCUACACAUCGUAUGUACCGAAUCGGGGUUGGGGUUGGGGUUGGGAAAGUAUUAUGUUACGCCGUUCGGAUCUGCACUUC | 0.904
CAAGUCCUGUGCUACACAUCGUAUGUACCGAAUCGGUUUUUUUGGUGGAAAAAGGAAAGUAUUAUGUUACGCCGUUCGGAUCUGCACUUC | -0.986

Block 4
Target: Sal-like protein 4, full length isoform B (SALL4, Homo sapiens, UniProt Q9UJQ4-2, residues 1-616)
Method: universal PBM
Form: double-stranded DNA, one strand shown
Matrix: in vitro
Concentration: not given
Notes: 8-mer, flanks averaged, mean of replicates
Reading: higher = stronger binding
Construct (chain): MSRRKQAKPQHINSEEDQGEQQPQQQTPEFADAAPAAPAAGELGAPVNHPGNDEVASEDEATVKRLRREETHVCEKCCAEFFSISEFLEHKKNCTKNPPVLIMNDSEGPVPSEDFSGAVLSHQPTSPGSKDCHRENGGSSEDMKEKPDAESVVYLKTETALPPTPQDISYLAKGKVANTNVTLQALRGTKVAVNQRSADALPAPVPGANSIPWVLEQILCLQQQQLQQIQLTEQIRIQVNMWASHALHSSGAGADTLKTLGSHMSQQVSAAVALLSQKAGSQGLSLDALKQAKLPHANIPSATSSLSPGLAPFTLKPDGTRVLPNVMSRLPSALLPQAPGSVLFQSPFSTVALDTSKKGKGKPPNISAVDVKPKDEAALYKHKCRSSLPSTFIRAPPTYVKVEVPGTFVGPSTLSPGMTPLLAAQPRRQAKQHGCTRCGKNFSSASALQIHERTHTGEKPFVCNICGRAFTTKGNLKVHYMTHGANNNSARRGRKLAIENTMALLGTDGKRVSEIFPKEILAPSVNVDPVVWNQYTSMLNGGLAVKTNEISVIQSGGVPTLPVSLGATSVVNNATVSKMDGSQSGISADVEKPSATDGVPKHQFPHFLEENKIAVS
Strand | E-score
CTACCTAA | 0.0348
GAGGAGGA | -0.133
CTCGATTC | -0.0608
CCTCTTTC | -0.223
ACAAATAC | 0.141
CGAGTGGC | -0.189
ATTACTTG | 0.206
AAATCCCA | 0.0999
GCGTGACA | -0.0947
TGACCACA | -0.00437
AGGCACAC | -0.0834
CCAATCTA | -0.0217
TCACAAAA | 0.104
ATGCCAAC | 0.0724
CAGCAGCA | -0.212
TGACACCA | -0.0712
CGTTGCTA | 0.0368
GGACGATA | 0.0157
GAAGGCAC | -0.137
AATCTACG | 0.0215
ATGCTCCA | -0.183
CATCGCCC | -0.274
ACGCTCCT | -0.104
CGGCATAG | -0.0591
ACACCGGG | -0.33

Block 5
Target: Histone acetyltransferase KAT6A, winged helix 1, GST fusion (KAT6A, Homo sapiens, UniProt Q92794, residues 1-85)
Method: protein binding microarray
Form: double-stranded DNA, one strand shown
Matrix: in vitro
Concentration: not given
Notes: 8-mer, flanks averaged, mean of 2 arrays, mostly near background
Relative to: not given
Reading: higher = stronger binding
Residues (chain): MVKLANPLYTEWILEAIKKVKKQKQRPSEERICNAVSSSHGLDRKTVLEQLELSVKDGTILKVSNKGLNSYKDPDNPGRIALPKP
Strand | E-score
CCCATTGC | -0.0601
GTTTCTCA | -0.19
ATACAGTG | -0.211
ACCGAGCA | -0.0101
TCACTTCA | -0.0671
CACCCAGC | -0.0378
AAACCTGA | -0.0779
CTTCGGGC | 0.0267
ACGGTTTA | 0.0488
CTCCAAGA | -0.226
CTAAAGGC | -0.0541
AGTGATGC | -0.08
AAGCTTCG | -0.144
GTATATAC | 0.0335
AGTTATAG | -0.153
ATCGGGCG | 0.306
AACCATCC | 0.0572
CGTTGCTC | 0.131
CAAATAAC | -0.0639
CCAAGAGA | -0.18
ACAATATC | 0.00483

For quick reference, copied from above (block 5):
Strand | E-score
CTAAAGGC | -0.0541
AGTGATGC | -0.08
AAGCTTCG | -0.144
GTATATAC | 0.0335
AGTTATAG | -0.153
ATCGGGCG | 0.306
AACCATCC | 0.0572
CGTTGCTC | 0.131
CAAATAAC | -0.0639
CCAAGAGA | -0.18
